Results pooled from the literature.
Parts stem from different laboratories: compare values within a part only. Substitutions count along the parent as printed.

Series 1
Target: UBE2M UBC core domain (UniProt P61081)
Technique: yeast two-hybrid
Matrix: yeast
Notes: mostly zero background
Reference: not given
Reading: higher = stronger interaction
B1: RNF5 RING domain (UniProt Q99942); chain ERGGAGATFECNICLETAREAVVSVCGHLYCWPCLHQWLETRPERQECPVCKAGISREKVVP
B2: TRIM52 RING domain (UniProt Q96A61); chain PMQTLQEEAVCAICLDYFKDPVSISCGHNFCRGCVTQLWSKEDEEDQNEEEDEWEEEEDEEAV
B3: RNF43 RING domain (UniProt Q68DV7); chain SGSSCSSAPVCAICLEEFSEGQELRVISCLHEFHRNCVDPWLHQHRTCPLCMFNITEGDSFS
B4: MSL2 RING domain (UniProt Q9HCI7); chain LLPYFRQSLSCCVCGHLLQDPIAPTNSTCQHYVCKTCKGKKMMMKPSCSWCKDYEQFEENKQ
B5: PEX2 RING domain (UniProt P28328); chain DNTLATSGKECALCGEWPTMPHTIGCEHIFCYFCAKSSFLFDVYFTCPKCGTEVHSLQPLK
B6: RNF149 RING domain (UniProt Q8NC42); chain EKGIDVDAENCAVCIENFKVKDIIRILPCKHIFHRICIDPWLLDHRTCPMCKLDVIKALGYW
B7: TRIM35 RING domain (UniProt Q9UPQ4); chain PSRSFKEELLCAVCYDPFRDAVTLRCGHNFCRGCVSRCWEVQVSPTCPVCKDRASPADLRT
Residues (chain): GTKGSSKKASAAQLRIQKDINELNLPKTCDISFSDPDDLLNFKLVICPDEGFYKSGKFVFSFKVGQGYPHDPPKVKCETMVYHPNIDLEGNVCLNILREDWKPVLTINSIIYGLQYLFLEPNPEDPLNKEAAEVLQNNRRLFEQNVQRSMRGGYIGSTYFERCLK
Molecule | lacZ reporter activity
B1 (RNF5 RING domain) | 0
B2 (TRIM52 RING domain) | 0
KRQCSDVDDICSICQAEFQKPILLICQHIFCEECMTLWFNREKTCPLCRTVISDHINKW (RNFT1 RING domain (UniProt Q5M7Z0)) | 0
B3 (RNF43 RING domain) | 0
B4 (MSL2 RING domain) | 0
B5 (PEX2 RING domain) | 0
B6 (RNF149 RING domain) | 0
FLKKLEQSFMCVCCQELVYQPVTTECFHNVCKDCLQRSFKAQVFSCPACRHDLGQNYIMI (UHRF2 RING domain (UniProt Q96PU4)) | 0
B7 (TRIM35 RING domain) | 0

Series 2
Target: CCND2, cyclin fold, Cln2 fusion (human)
Technique: yeast growth competition, sequencing
Matrix: yeast
Notes: weak parent motif
Reference: not given
Reading: higher = stronger binding
Parent: SCAPER docking peptide (human); SNARRSLNFGGST
Substitution | normalised enrichment score
SNARRSLNFLGST [G10L] | 0.265
SNARASLNFGGST [R5A] | 0.00767
CNARRSLNFGGST [S1C] | 0.662
SNVRRSLNFGGST [A3V] | 0.0339
SNIRRSLNFGGST [A3I] | 0.319
SNARRSINFGGST [L7I] | 0.501
SNARRSLNFHGST [G10H] | 0.319
SCARRSLNFGGST [N2C] | 0.00469
SNARRSLNFWGST [G10W] | 0.377
SNARRSLNFGCST [G11C] | 0.644
SNARRSLNFGGSF [T13F] | 0.369
SNARRSLNFGPST [G11P] | 0.141
SNARRSLNFIGST [G10I] | 0.225
HNARRSLNFGGST [S1H] | 0.192
SNARISLNFGGST [R5I] | 0.535
SNNRRSLNFGGST [A3N] | 0.415
SNARRSLNFQGST [G10Q] | 0.431
NNARRSLNFGGST [S1N] | 0.359
SNARRSLNFGGSC [T13C] | 0.545
SNARRSLNFGGSD [T13D] | 0.773

Series 3
Target: HLF, bZIP domain (human)
Technique: DHFR protein complementation
Matrix: yeast
Notes: single substitutions, most at no-binding floor
Reference: wild-type JUN-FOS pair
Reading: higher = stronger binding
Parent: JUN, bZIP domain (human); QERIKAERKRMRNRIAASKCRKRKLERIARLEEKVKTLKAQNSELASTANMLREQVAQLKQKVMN; partner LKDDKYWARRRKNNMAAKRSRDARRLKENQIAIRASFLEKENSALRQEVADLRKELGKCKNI
Substitution | binding fitness
K36D | -1.39 natural log
A46N | -1.38 natural log
T48G | -1.49 natural log
T48P | -1.5 natural log
M51C | -1.48 natural log
L52G | -1.52 natural log
Q55R | -1.38 natural log
V56R | -1.43 natural log
A29M | -1.47 natural log
Q55D | -1.39 natural log
T37A | -1.38 natural log
R30F | -1.29 natural log
T48K | -1.45 natural log
V56G | -1.5 natural log
L52H | -1.49 natural log
A49G | -1.4 natural log
E44Y | -1.57 natural log

Series 4
Target: RING finger protein unkempt homolog, zinc fingers 1-6, GST-SBP tag (UNK, Homo sapiens, UniProt Q9C0B0, residues 30-357)
Sequence of UniProt Q9C0B0 (30-357, looked up): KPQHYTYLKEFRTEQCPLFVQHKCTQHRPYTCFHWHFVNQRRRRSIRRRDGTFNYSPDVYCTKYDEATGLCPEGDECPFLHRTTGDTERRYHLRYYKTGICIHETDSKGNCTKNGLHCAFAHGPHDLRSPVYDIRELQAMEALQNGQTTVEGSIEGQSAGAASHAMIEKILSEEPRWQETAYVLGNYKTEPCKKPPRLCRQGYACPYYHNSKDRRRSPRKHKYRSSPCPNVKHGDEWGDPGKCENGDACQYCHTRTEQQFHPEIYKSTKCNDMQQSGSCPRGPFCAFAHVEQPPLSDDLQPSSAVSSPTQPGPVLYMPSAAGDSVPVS
Technique: RNA Bind-n-Seq
Molecule type: RNA
Matrix: in vitro
Concentration: not given
Notes: RNA with constant flanks, ends assumed
Reference: input RNA pool
Reading: higher = stronger binding
Strand | bound/input enrichment
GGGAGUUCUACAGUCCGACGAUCAUCAAACAUUACUUCAGUAUAGUUCCAGGAAAUGUGAGUUCUUCUCCCAGAUCUUCUGAUUCCGUCAAAUUAGCCCAAGAGUGCUGUUACCAUAAUAACAGGGGCAUUGCAGCUCAUGGACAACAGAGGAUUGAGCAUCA | 0.302 ratio
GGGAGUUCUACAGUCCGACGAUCGAUGUAGAAAAAUUUUGUAACAGUGUAGUCGAUCUGUAUUCAAAUCUUAGUAAGCCAUUUUCCGACACCGUUUUGUAUAUCUUUAAGUUAACGAGUGCAAUUGGAGCUCAGGGCCCAGCGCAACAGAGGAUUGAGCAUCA | 7.83 ratio
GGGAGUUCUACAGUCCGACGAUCUAUCUUAUAUCACCUCUAGAUUUUGUACCUGAAGCCUUGUUUGGAAUUCUAGGCUUUCCCGAUGAUUUCUUUGUCAUCUUUUUAUUGCUUAUCUACAUCUCUAUUAUGUAUCGAGAAGUGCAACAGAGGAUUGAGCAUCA | 1.83 ratio
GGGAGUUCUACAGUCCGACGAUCUGUUUGUGUGUGUGCGUGUGCGUGUGUGUGUGUGUUGGAAUUUCCUAUCUGCCUGGAUAUAUCCGCAGAGUUUGAAUGUAGUUUUGGCCUUUGGCCAUUAGACUUCUAUUAAAAUUCAUUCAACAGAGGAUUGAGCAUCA | 0.687 ratio
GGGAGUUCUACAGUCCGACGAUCUGUUUCUUUCUUGAAAGAAGUGGAGUCUCCUUAUGAAGUCCAUGACUAUACCAGGGCCUAUUCCGGAGAUACUUCCGAGGCCAAGGAGUUUGCCAAGCAGUUCCUUGAACGCCGUGCCAACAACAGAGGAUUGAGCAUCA | 0.1 ratio
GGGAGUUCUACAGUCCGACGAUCGAAAUGAAGUACUACAUAGUGCAUUUGAAACGCCACUUUAUGUUUCGAAACCAUCUCUGUUCCGUGUUUGAAAUGCUGUCCUAUAAUCUCUAUGAUUUGUUGAGAAACACCAACUUCCGACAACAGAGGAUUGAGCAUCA | 0.16 ratio
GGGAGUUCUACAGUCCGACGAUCGCUAGCCAGUCUGGAGCAACAUUCUUCAGCAUCUCUGCUUCAUCGUUGACUUCUAAGUGGGCCGGUGAGGGAGAAAAAAUGGUCCGUGCACUGUUUGCUGUUGCCAGGUGUCAGCAGCCACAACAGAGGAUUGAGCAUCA | 0.125 ratio
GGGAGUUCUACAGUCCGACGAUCCAUCCAUUAUCUAUCUCCAUUUUCCAUUAUGGUACCUCUCAGAAGAGUGAGAGAGAGCUAUCCGAGAUUGUGAAGAAGAAUUUCGAUCUCCGCCCUGGGGUCAUUGUCAGGGAUCUGGAUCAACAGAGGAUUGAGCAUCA | 0.148 ratio
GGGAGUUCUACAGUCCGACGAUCGUACUGCUGGUAUUGUACCAGGAACAUUUUCUUUUAUUGUUACUUGCUUUUUAAACUUUGUUCCGCCACUUAAAGAAAACCUGCUCAUGGCACAACUUGCCUCAAAUCCAUUCCAAGUUGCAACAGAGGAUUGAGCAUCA | 0.364 ratio
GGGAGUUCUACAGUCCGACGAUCGGGGGGGGUGUGCCUGCUGUACUUGACUGAAGUGUAAAGCUUUGGUAAGGAUUUGGCCUCCCGCAGUCUUAGGUUUCUGCAUUUACCACGGUGACACAGCCCCUACAGGGCUGACUAGGACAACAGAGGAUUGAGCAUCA | 3.25 ratio
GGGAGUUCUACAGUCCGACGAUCACACCCACGAUCCAGUGUCUGCUUUACCUAUUUAUUUUUUAAGUUUUUUUAACGUCUGCUUUCCGAAGUGGAGCUUUGACAGGGUGUUUGCUCGAUAGAAAGGCAGCCUCUGUCCUUAAGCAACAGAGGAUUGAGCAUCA | 4.75 ratio

Series 5
Target: RNA binding protein fox-1 homolog 2, RRM domain, GST-SBP tag (RBFOX2, Homo sapiens, UniProt O43251-10, residues 100-194)
Technique: RNA Bind-n-Seq
Molecule type: RNA
Matrix: in vitro
Concentration: 365 nM
Notes: natural RNA segment, single round, ends assumed
Reference: no-protein control
Reading: higher = stronger binding
Construct (chain): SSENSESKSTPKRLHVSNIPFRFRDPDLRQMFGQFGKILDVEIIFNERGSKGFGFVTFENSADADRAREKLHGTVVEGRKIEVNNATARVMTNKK
Strand | RBNS enrichment (R)
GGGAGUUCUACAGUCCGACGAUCACUGUUACACCCUUUGAACGGAUGCUUUAGCUCUGAUGUCGUCACAGAGCCUUGGUUUAUCCUGUACCUGUCAUUUCUGUUUGCAACUGGUUGCUGUAGCAACAAGAGUGUGGAAUUCUCGGGUGCCAA | 0.733
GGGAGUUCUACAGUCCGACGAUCUAAUUACAAGUCCACAUCAUGAGACAAACUGAAGUAACUUAGGCAAAACAGGUAAAACAGUCAUAGUUUUGUGAUUAUAAAUGAGAUGAAUGUUCACCCUUCCAAGAUCUUGGAAUUCUCGGGUGCCAA | 0.199
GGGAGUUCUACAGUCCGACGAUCAUAGCCCACGUACCCUCGCAGUGUCCAGUAGGGAUCCCAGAGGCACAUAACCAAGAAAGGAUUUUGACUUUGUCACAGUGACUAUUUAAAAUAAUCUAUUCGAAGUCCAAUGGAAUUCUCGGGUGCCAA | 0.291
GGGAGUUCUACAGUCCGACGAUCAUGUGUUAUGAAUCGGUGCUGUCAGCCCUGCUGUCAGACCUUCUUCCACAGCAAAUGAGAUGUAUGCCCAAAGACGGUAGAAUUAAAGAAGAGUAAAAUGGCUGUUGAAGUGGAAUUCUCGGGUGCCAA | 1.58
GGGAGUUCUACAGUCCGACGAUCCAUGUACAGUUUCCUGAAUUGUCACUGUGCAUCCAAACGUAAUGAGUCUAACAGACACUGAUUUCAUGUGCACUCCCCUCUGCUUACAAUGUGCAUUUUUUGGAGGUCAUUGGAAUUCUCGGGUGCCAA | 0.691
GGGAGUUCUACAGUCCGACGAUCCCCCUGGAUUCCCAGCAGCACACGGAAGUCUGACUCUCAACUCCCCCCAAAGUGCCUGACUUUAGUGAACCUAGAGGUGAUGUGAGUAAUCCGCGCUGUUCUUUGCAGCAUGGAAUUCUCGGGUGCCAA | 0.398
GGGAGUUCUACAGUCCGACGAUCUCUGCCAGAGAGUGUCAGCUCUGUCAUCCACCAUAUUUCGACAGCCGCUCCUUGCUGCUACACGGGGUAGGAGGACAUACAAAUAAUUGCUUCUCGUUCUUAGCAGGGAUUGGAAUUCUCGGGUGCCAA | 0.3
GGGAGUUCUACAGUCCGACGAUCCUCCCUGGCAUGACCAUCCUGUCCUUUGUUAUUAUCCUGCAUUUUACGUCUUUGGAGGAACAGCUCCCUAGUGGCUUCCUCCGUCUGCAAUGUCCCUUGCACAGCCCACAUGGAAUUCUCGGGUGCCAA | 2.12
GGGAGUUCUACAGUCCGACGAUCCAAGACUUUGUACCGUCACUCAUUUGUAUAAGUGCGCUUCGUCACUGCACGGGCCCUGCUCCUGCAACAUGGAACUGUCGCGUAGCACCUGUACAAGAGACCCGGCCACUUGGAAUUCUCGGGUGCCAA | 0.26
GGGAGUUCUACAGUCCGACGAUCGGCUGGAAGCCCUCCCUCCACUUAAGUUAUUGUUUUAAACCAAAGUUUACAGUGUCUGUUGGUGGCCAAGACCUUCUCUCUCCACCCCUCCUCCAUCCACCCUGAGGACCUGGAAUUCUCGGGUGCCAA | 0.961
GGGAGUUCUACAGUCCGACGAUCUGGGACUUUAUUUUCACAUGUUAAAUGCUGGAAUAUAUUAUGAAAAUGUUUUCAAGAAAUCACUUAAGUGUUCAUAGACCAGUAUUUCUGACAGGUAAAAUGCUAAAAUAUGGAAUUCUCGGGUGCCAA | 0.448
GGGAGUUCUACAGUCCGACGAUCAAAUCUUUCAAAAAAAAAAUCGGGACAAGUGAACACAUUAACAUGAUUCUGUUUGUGCAGAUUAAAAACUUUAUAGGGACUUGCAUUAUCGGUUCUCAAUAAAUUACUGAUGGAAUUCUCGGGUGCCAA | 0.767
